Published values of several laboratories.
Lines come from different studies, so protocols differ. ± gives the spread as reported.
Sample: plasma

SMILES	test	test system	conditions	Cmax
CCCCCCCOc1ccc(CC[C@](N)(CO)COP(=O)(O)O)cc1C(F)(F)F	–	healthy human males	0.125 mg, day 21	1.43 ng/mL
C[C@]12C[C@H](c3ccc(S(C)(=O)=O)cc3)C3=C4CCC(=O)C=C4CC[C@H]3[C@@H]1CC[C@@]2(O)C(F)(F)C(F)(F)F	–	human	oral, 5 mg multiple doses, day 28	30 ng/mL
Cc1[nH]c(=O)c(CNC(=O)c2cc(Cl)c3c(c2C)O[C@@](C)([C@H]2CC[C@H](N(C)C)CC2)O3)c(C)c1O	LC-MS/MS	human male	oral, 200 mg, single dose, metabolite of valemetostat, with: [14C]-valemetostat	471 ng/mL
COc1cc2c(cc1OC)[C@H]1C[C@H](O)[C@H](CC(C)C)CN1CC2	item: non-deuterated analyte	healthy human male	oral, 25 mg, geometric mean, [14C]-tetrabenazine dosed	6.62 ng/mL
CCCCCCCCCCCCCCCC(=O)N[C@@H](CCCCN)C(=O)N[C@@H](CCCCN)C(=O)N[C@@H](CO)C(=O)N[C@@H](CCCNC(=N)N)C(=O)N[C@@H](C)C(=O)N[C@@H](CC(C)C)C(=O)N[C@@H](Cc1ccccc1)C(N)=O	UHPLC-MS/MS	human patients	intravenous, 0.5 mg/kg, over 2 h	2600 ng/mL
CC(C)C[C@H](NC(=O)[C@H](CCCN)NC(=O)CNC(=O)[C@@H](NC(=O)[C@H](C)NC(=O)[C@@H]1CSCSC[C@H](NC(=O)CC[C@H](N)C(=O)O)C(=O)N[C@@H](CC(N)=O)C(=O)N[C@@H]([C@@H](C)O)C(=O)N[C@@H](C)C(=O)N[C@@H]([C@@H](C)O)C(=O)N1)[C@@H](C)O)C(=O)N[C@@H](C)C(=O)N[C@@H](CCC(=O)O)C(=O)N[C@@](C)(Cc1ccccc1)C(=O)N[C@@H](CC(C)C)C(=O)N[C@H](C(=O)N[C@@H](CCCNC(=N)N)C(=O)N[C@@H](CO)C(=O)N[C@@H](CO)C(=O)N[C@@H](CC(N)=O)C(=O)N(C)[C@@H](CC(N)=O)C(=O)N[C@@H](Cc1ccccc1)C(=O)NCC(=O)N1CCC[C@H]1C(=O)N[C@@H](CCCCNC(=O)CC[C@H](NC(=O)CC[C@H](NC(=O)CCCCCCCCCCCCCCCCCCC(=O)O)C(=O)O)C(=O)O)C(=O)N[C@@H](CC(C)C)C(=O)N1CCC[C@H]1C(=O)N1CCC[C@H]1C(=O)N[C@H](C(=O)N[C@@H](CCC(=O)O)C(=O)N[C@H](C(=O)NCC(=O)N[C@@H](CO)C(=O)N[C@@H](CC(N)=O)C(=O)N[C@H](C(=O)N[C@@H](Cc1ccc(O)cc1)C(N)=O)[C@@H](C)O)C(C)C)[C@@H](C)O)C(C)C	–	healthy human	subcutaneous, 0.4 mg single dose, geometric LS mean	37.6 ng/mL
CCOc1cc(CC(=O)N[C@@H](CC(C)C)c2ccccc2N2CCCCC2)ccc1C(=O)O	–	human	oral, dose not given, geometric least-squares mean, with: omaveloxolone once daily	15.8 ng/mL
Cc1cc(F)ccc1-c1cc(N2C[C@H]3COC(O)CN3C[C@H]2CO)ncc1N(C)C(=O)C(C)(C)c1cc(C(F)(F)F)cc(C(F)(F)F)c1 (stereo partly shown)	–	human	oral, 120 mg, geometric mean	128 ng/mL
CC1(C)CC[C@]2(NC(=O)C(C)(F)F)CC[C@]3(C)[C@H](C(=O)C=C4[C@@]5(C)C=C(C#N)C(=O)C(C)(C)[C@@H]5CC[C@]43C)[C@@H]2C1	–	human	oral, dose not given, geometric least-squares mean, with: efavirenz	19.9 ng/mL
CC(CCC(=O)NCC(=O)O)C1CCC2C3CCC4CC(OC5OC(C(=O)O)C(O)C(O)C5O)CCC4(C)C3CC(O)C12C (stereo not shown)	–	human	concentration not given, endogenous baseline diurnal	223 ± 47 nM

Some of these lines once more:
SMILES	test	test system	conditions	Cmax
CCCCCCCCCCCCCCCC(=O)N[C@@H](CCCCN)C(=O)N[C@@H](CCCCN)C(=O)N[C@@H](CO)C(=O)N[C@@H](CCCNC(=N)N)C(=O)N[C@@H](C)C(=O)N[C@@H](CC(C)C)C(=O)N[C@@H](Cc1ccccc1)C(N)=O	UHPLC-MS/MS	human patients	intravenous, 0.5 mg/kg, over 2 h	2600 ng/mL
